# Results from different studies.
# Compare with care: the assays were run in different laboratories. Numbers after ± are the reported error.
Compound,test,test system,conditions,how to read,measurement,value
N#Cc1cc(C(=O)OCC[18F])c(C(F)(F)F)nc1N1CCC(C(=O)NS(=O)(=O)c2ccc(Cl)s2)CC1,dynamic PET,healthy C57BL/6 mouse,"intravenous, 11.1 MBq",,brain SUVmean,0.12 ± 0.08
C[C@H](CN(C)Cc1ccccc1)NC(=O)c1ccc(-c2noc(C(F)(F)[18F])n2)cc1,microPET,mouse,10 min after injection,,brain uptake,3.74 ± 0.21 %ID/cc
Nc1nc(Cl)nc2c1ncn2Cc1cc(OCC(F)F)cc(OC(F)F)c1,,"C57BL/6J mouse male, brain homogenate","oral, 5.0 mg/kg, 4 h",,brain concentration,~281 nM
Cc1cc2c(c(=O)o1)C=C1CCC(C(C)CNCc3ccc(O)cc3)CC1O2 (stereo not shown),HPLC-MS,mouse,"ip, dose not given, 30 min",,brain concentration,18600 ng/mL
NS(=O)(=O)NCC(F)(F)c1ccccc1F,,mouse,"oral, 5 mg/kg, AUC based",,brain to plasma ratio,2.8
COc1ccc(NC(=O)N2CCCN3CCC(c4ccc(C#CC5CCCC5)cc4)C3C2)cc1 (stereo not shown),,"CD-1 mouse, brain homogenate",dose not given,,brain tissue binding,100%
[11CH3]N1CCCC[C@H]1[C@@H](NC(=O)c1nccc(C(F)(F)F)c1Cl)c1ccsc1,,"male ddY mouse, brain","iv, 5 min",,brain uptake,1.11 % injected dose/g
O=C1CCc2ccc(NS(=O)(=O)c3cccc(Oc4ccccc4)c3)cc2N1,,"C57BL/6J mouse, brain",3 mg/kg,reference: oral over subcutaneous,brain AUC(0-6 h) ratio,87%
CCC1CC2C(C)=CC3C(=O)CCCC3C=CC(C)=CC2C(=O)O1 (stereo not shown),,"ICR mouse (male), brain","intravenous, 2 mg/kg, 60 min",,brain concentration,8.9 ± 3.6 ng/g
Cn1cnc(C(=O)N(Cc2ccc(F)c(OC3CCCC3)c2)C2CC3CN([11CH3])CC3C2)c1 (stereo not shown),,"male ddY mouse, brain","iv, 1 min",,brain uptake,0.15 % injected dose/g
N#CCc1cccc(Cl)c1-c1ccc2[nH][11c](=O)[nH]c2c1,,mouse,5 min,reference: no inhibitor,brain uptake,0.5 ± 0.1 %ID/g
Cc1c(C(=O)Nc2ccn(C)n2)ncn1Cc1cccc(C(F)(F)F)c1,,"C57BL/6 mouse, non-transgenic, brain","drinking water, 50 mg/kg daily, 10 days",,brain concentration,368 ± 115 ng/g
O=S(=O)(N[C@@H]1CCC[C@H](N2c3ccccc3Oc3ccccc32)[C@H]1O)c1ccc(OC(F)(F)F)cc1,,"mouse, brain","oral, 30 mg/kg twice daily",,brain exposure,10 µM
